{"data": "Assay results gathered from unrelated publications", "note": "A part holds a random share of what one study measured."}
{"data": "Series 1", "target": "Ras GTPase-activating protein-binding protein 1, full length (G3BP1, Homo sapiens, UniProt Q13283)", "method": "RNA Bind-n-Seq", "form": "RNA", "matrix": "in vitro", "concentration": "200 nM", "setting": "whole 134-nt RNA, ends assumed", "with": "150 mM LiCl", "reference": "input library", "reading": "higher = stronger binding", "each molecule": "7-deaza-guanosine replaces G", "all sequences stand within": "GGGAGUUCUACAGUCCGACGAUC … UGGAAUUCUCGGGUGUCAAGG", "chain of UniProt Q13283 (whole entry, looked up)": "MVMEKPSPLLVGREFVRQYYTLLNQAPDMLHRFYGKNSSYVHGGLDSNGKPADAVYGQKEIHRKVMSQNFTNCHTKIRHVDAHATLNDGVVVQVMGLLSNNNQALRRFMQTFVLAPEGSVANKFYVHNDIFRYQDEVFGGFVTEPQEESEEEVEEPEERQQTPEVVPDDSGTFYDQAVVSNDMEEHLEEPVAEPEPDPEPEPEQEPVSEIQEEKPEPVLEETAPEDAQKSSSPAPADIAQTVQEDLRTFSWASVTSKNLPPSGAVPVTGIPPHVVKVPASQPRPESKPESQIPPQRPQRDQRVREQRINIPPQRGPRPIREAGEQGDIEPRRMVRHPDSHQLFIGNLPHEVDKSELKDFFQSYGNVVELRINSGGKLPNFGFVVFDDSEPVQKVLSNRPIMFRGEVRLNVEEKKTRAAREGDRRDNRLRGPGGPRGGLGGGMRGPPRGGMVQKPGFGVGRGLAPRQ"}
{"Sequence": "UCCUCAAGUCCUGUGCUACACAUCGUAUGUACCGAAUCGGGUGGGUGGUGGAAAGUAUUAUGUUACGCCGUUCGGAUCUGCACUUCCAGC", "log2 enrichment": 0.151}
{"Sequence": "ACCAUGCAGGUGGGCAUCUUUGCGAAGUGGGGCAAGGGGGGGAUAGGGAGGGGGGUAACACUUUGGGAACAGGUGGUCCCAGGUCGUUUC", "log2 enrichment": 0.38}
{"Sequence": "UGGGAGGUGGAUUUUGUUUAUUGUUUUAGCUCAUUUCCAGGGGUGGGAAUUUUUUUUUAAUAUGUGUCAUGAAUAAAGUUGUUUUUGAAA", "log2 enrichment": -0.163}
{"Sequence": "AAACAGCUCUAUAACAAAAUACAAUGCGGGUUCAUGUUAAUGUUUUUAUCUCUAACAGGUUGGUUUCAGUGCUGAUGAAACUUGGGACUC", "log2 enrichment": -2.35}
{"Sequence": "UCCUCAAGUCCUGUGCUACACAUCGUAUGUACCGAAUCGGAGGGGAGGGAGGAAAGUAUUAUGUUACGCCGUUCGGAUCUGCACUUCCAG", "log2 enrichment": -1.05}
{"Sequence": "CACAGACAACACGCACCCACACAGACACAGAGGGAAGGGGUUGGGAUGGGGACAGGGUGCACAGCAGGGCGGGGUAGGAAAACAGCCCCU", "log2 enrichment": -0.0328}
{"data": "Series 2", "target": "Sal-like protein 4, full length isoform A (SALL4, Homo sapiens, UniProt Q9UJQ4, residues 1-1053)", "method": "universal PBM", "form": "double-stranded DNA, one strand shown", "matrix": "in vitro", "concentration": "600 nM", "setting": "8-mer, flanks averaged, mean of replicates", "reading": "higher = stronger binding", "chain of UniProt Q9UJQ4 (whole entry, looked up)": "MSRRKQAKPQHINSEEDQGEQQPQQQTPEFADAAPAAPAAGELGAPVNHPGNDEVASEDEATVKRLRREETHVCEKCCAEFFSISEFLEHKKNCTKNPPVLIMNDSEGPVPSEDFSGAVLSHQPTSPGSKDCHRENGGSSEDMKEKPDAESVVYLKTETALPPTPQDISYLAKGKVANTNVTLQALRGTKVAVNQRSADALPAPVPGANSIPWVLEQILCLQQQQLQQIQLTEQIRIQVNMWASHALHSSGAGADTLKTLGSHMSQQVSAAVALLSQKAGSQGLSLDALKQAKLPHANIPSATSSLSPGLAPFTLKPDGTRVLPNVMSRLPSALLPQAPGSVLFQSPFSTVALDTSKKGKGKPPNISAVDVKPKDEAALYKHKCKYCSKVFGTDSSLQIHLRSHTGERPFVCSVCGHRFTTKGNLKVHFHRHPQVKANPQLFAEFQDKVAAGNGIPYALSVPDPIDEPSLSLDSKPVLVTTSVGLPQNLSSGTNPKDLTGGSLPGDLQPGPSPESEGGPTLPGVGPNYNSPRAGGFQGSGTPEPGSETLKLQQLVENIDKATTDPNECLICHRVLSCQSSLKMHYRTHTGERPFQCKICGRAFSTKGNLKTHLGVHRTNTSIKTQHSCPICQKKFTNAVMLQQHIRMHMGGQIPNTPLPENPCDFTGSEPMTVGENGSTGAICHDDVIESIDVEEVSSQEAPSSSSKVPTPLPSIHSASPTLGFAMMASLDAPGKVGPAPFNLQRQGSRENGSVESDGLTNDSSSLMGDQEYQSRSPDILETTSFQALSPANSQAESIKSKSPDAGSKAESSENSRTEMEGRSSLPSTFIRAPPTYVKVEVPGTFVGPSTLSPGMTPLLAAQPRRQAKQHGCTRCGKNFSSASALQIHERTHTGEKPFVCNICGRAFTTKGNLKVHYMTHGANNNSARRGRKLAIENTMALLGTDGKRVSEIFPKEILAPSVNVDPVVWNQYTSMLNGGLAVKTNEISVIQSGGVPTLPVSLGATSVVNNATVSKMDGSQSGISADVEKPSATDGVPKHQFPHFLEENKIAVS"}
{"Sequence": "GAGTCCAC", "E-score": -0.223}
{"Sequence": "CCAATTAA", "E-score": 0.195}
{"Sequence": "CCGGATAA", "E-score": 0.0392}
{"Sequence": "ACTAGGTG", "E-score": -0.178}
{"Sequence": "AAGCCTTA", "E-score": 0.0143}
{"Sequence": "AGCTGACT", "E-score": -0.158}
{"data": "Series 3", "target": "Prothrombin, mature alpha-thrombin (F2, Homo sapiens, UniProt P00734)", "method": "aptamer microarray, sandwich", "form": "DNA with 2'F-ANA", "matrix": "in vitro", "concentration": "200 nM", "setting": "whole 15-mer aptamer, many near background", "with": "Cy3 exosite-II aptamer, 400 nM", "reading": "higher = stronger binding", "sequence": "GGTTGGTGTGGTTGG"}
{"Modification": "2'F-ANA at 1 3 6 7 8 9 10 11 12 13 15", "mean fluorescence intensity [a.u.]": 115}
{"Modification": "2'F-ANA at 7 9 11 12 14 15", "mean fluorescence intensity [a.u.]": 286}
{"Modification": "2'F-ANA at 1 4 5 6 7 8 10 11 13 14", "mean fluorescence intensity [a.u.]": 51.5}
{"Modification": "2'F-ANA at 1 2 3 5 7 8 11 12 15", "mean fluorescence intensity [a.u.]": 95.8}
{"Modification": "2'F-ANA at 1 4 7 8 9 13", "mean fluorescence intensity [a.u.]": 87.7}
{"Modification": "2'F-ANA at 3 5 6 7 10 12 13 15", "mean fluorescence intensity [a.u.]": 56.5}
{"Modification": "2'F-ANA at 1 3 5 6 7 8 10 12 15", "mean fluorescence intensity [a.u.]": 48}
{"Modification": "2'F-ANA at 3 5 6 7 8 13 15", "mean fluorescence intensity [a.u.]": 121}
{"Modification": "2'F-ANA at 3 6 8 10 12 14 15", "mean fluorescence intensity [a.u.]": 375}
{"Modification": "2'F-ANA at 1 11 12 13 15", "mean fluorescence intensity [a.u.]": 278}
{"data": "Series 4", "Substance": "PhoQ, residues 284 288 289 292 302 303 TGYLSA", "method": "Sort-seq", "measured": "YFP reporter", "matrix": "E. coli", "setting": "PhoQ-PhoP variant library", "with": "10 µM Mg2+", "reference": "high Mg2+ state", "reading": "higher = stronger signaling"}
{"target": "PhoP, residues 12 14 15 18 19 QYCSL (Escherichia coli, UniProt P23836)", "fold induction": 6.48}
{"target": "PhoP, residues 12 14 15 18 19 STHWV (Escherichia coli, UniProt P23836)", "fold induction": 4.15}
{"target": "PhoP, residues 12 14 15 18 19 SHWTV (Escherichia coli, UniProt P23836)", "fold induction": 16.7}
{"note": "Some of these lines once more (series 3):"}
{"Modification": "2'F-ANA at 1 3 6 7 8 9 10 11 12 13 15", "mean fluorescence intensity [a.u.]": 115}
{"Modification": "2'F-ANA at 7 9 11 12 14 15", "mean fluorescence intensity [a.u.]": 286}
{"Modification": "2'F-ANA at 1 4 5 6 7 8 10 11 13 14", "mean fluorescence intensity [a.u.]": 51.5}
